Measured values collected from several papers.
Compare with care: the assays were run in different laboratories. ± marks the error that the study gave.
Target: Tyrosine-protein kinase FRK (FRK, Homo sapiens, UniProt P42685)
UniProt P42685, sequence (whole entry, looked up): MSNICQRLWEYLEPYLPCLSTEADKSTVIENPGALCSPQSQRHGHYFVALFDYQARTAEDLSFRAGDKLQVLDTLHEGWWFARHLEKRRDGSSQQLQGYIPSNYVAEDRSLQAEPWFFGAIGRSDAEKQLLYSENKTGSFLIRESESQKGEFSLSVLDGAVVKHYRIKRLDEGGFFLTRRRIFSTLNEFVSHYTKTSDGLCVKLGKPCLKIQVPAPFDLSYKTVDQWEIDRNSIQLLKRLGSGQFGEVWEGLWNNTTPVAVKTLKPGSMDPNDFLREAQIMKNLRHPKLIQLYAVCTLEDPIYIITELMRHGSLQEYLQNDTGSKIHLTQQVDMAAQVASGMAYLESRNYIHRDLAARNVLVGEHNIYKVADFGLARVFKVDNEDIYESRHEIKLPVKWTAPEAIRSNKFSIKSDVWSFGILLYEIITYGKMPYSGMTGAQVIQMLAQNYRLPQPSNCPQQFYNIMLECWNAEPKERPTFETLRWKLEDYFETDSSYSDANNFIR

SMILES = C=CC(=O)N1CCC(COCC(=O)N2CCN(c3nc(-c4cnc(N)nc4C(F)F)nc(N4CCOC[C@@H]4C)n3)CC2)CC1; test = KINOMEscan; conditions = 1 µM; endpoint = remaining binding; result = 96%
SMILES = C=CC(=O)N1CCC[C@@H](n2nc(-c3ccc(Oc4ccccc4)cc3)c3c(N)ncnc32)C1; conditions = 10 µM; endpoint = remaining activity; result = 93.7%
SMILES = C=CC(=O)N1CCC([C@@H]2CCNc3c(C(N)=O)c(-c4ccc(Oc5ccccc5)cc4)nn32)CC1; test = kinase activity, inhibitor, HotSpot radiometric; conditions = 100 nM, added: ATP 10 µM; endpoint = remaining activity; result = 91 ± 1.2%
SMILES = Cc1cc(Nc2cc(N3CCN(C)CC3)nc(Sc3ccc(NC(=O)C4CC4)cc3)n2)[nH]n1; test = kinase activity, KinaseProfiler; conditions = 0.03 µM, species human; how to read = relative to: control; endpoint = remaining activity; result = 99%
SMILES = [2H]c1cc(C)c(NC(=O)c2cnc(Nc3cc(N4CCCCC4)nc(C)n3)s2)c(Cl)c1; conditions = 0.0001 µM; endpoint = inhibition; result = > 50%
SMILES = COc1ccc(F)cc1C(=O)NCc1ccc(-c2nn([C@@H](C)C(F)(F)F)c(N)c2C(N)=O)cc1; test = kinase activity, inhibitor, HotSpot radiometric; conditions = 1000 nM, added: ATP at Km; endpoint = remaining activity; result = 98.4 ± 2.8%
SMILES = COc1cc(F)ccc1-c1ncnc(Nc2cccc(C[S@](C)(=N)=O)c2)n1; test = kinase activity; conditions = 10 µM, added: 10 µM ATP; endpoint = remaining activity; result = 55%
SMILES = [2H]c1cc(C)c(NC(=O)c2cnc(Nc3cc(N4CCC(O)CC4)nc(C)n3)s2)c(Cl)c1; conditions = 0.001 µM; endpoint = inhibition; result = > 50%
SMILES = C=CC(=O)N1CCC[C@@H](n2nc(-c3ccc(Oc4ccccc4)cc3)c3c(N)ncnc32)C1; test = kinase activity, inhibitor, HotSpot radiometric; conditions = 100 nM, added: ATP 10 µM; endpoint = remaining activity; result = 73.1 ± 1.1%
